Assay results from different studies.
Parts stem from different laboratories: compare values within a part only.

Block 1
Target: TAR DNA-binding protein 43, full length, His tag (TARDBP, Homo sapiens, UniProt Q13148, residues 1-414)
Technique: RNA Bind-n-Seq
Form: RNA
Medium: in vitro
Tested at: 20 nM
Setting: 6-mer, flanks averaged, single round
Together with: 150 mM LiCl
Reference: input library
Direction: higher = stronger binding
Measurement: 6-mer enrichment (R)
ACUGUA: 1
ACAGAC: 0.795
AGGGCC: 1.02
CUUCUA: 0.854
GUGAGC: 1.12

Block 2
Target: Histone acetyltransferase KAT6A, both winged helices, GST fusion (KAT6A, Homo sapiens, UniProt Q92794, residues 1-181)
Technique: protein binding microarray
Form: double-stranded DNA, one strand shown
Medium: in vitro
Tested at: not given
Setting: 8-mer, flanks averaged, mean of 2 arrays, mostly near background
Reference: not given
Direction: higher = stronger binding
Measurement: E-score
Residues (chain): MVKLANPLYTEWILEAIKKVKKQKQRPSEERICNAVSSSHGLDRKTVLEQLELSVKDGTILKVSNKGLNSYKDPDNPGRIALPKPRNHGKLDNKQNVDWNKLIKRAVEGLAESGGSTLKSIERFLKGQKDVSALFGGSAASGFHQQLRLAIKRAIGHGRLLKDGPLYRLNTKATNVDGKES
GCCTTGAA: -0.167
ATGCGCTC: 0.166
GCCGACCA: 0.122
ATTACATA: -0.091
AGGTAAAG: -0.0847
ACACGTGA: -0.0351

Block 3
Target: Interferon regulatory factor 7, full length, phosphomimetic (IRF7, Homo sapiens, UniProt Q92985, residues 1-503, S101K/S471D/S472D/S475D/S476D/S477D/S483D/S484D/S487D)
Chain of UniProt Q92985 (whole entry, unmodified, looked up): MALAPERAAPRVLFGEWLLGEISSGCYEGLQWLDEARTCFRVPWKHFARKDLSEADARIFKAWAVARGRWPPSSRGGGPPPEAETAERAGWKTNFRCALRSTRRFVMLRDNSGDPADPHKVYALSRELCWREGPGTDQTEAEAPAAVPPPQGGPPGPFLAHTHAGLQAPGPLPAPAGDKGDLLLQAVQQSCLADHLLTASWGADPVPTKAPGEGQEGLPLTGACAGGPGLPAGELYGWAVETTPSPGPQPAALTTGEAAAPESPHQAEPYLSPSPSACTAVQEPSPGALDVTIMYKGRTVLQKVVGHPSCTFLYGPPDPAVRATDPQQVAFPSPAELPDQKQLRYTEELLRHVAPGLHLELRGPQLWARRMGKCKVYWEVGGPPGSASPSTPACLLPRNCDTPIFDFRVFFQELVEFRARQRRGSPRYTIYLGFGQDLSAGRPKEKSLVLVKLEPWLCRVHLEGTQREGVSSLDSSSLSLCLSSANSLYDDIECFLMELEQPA
Technique: protein-binding microarray
Form: double-stranded DNA, one strand shown
Medium: in vitro
Tested at: 250 nM
Setting: 60-bp whole probe
Together with: salmon DNA 0.4 mg/ml
Reference: random background probes
Direction: higher = stronger binding
Measurement: log fluorescence
GCCTAGCACTTACCTCTCACGCATCTGAAAGTGCTAGTCTTGATTCGCTTGACGCTGCTG: 0.486 z-score
GCCTAGCACTCCTTTATGTCCTGTCTACATGTGCTAGTCTTGATTCGCTTGACGCTGCTG: 0.653 z-score
GCCTAGCACTCACCTCTCACCTCGGCACTGTGCTAGGTCTTGATTCGCTTGACGCTGCTG: 0.11 z-score
GCCTAGCACTCACTCTTCTTGCATCTGACTGTGCTAGTCTTGATTCGCTTGACGCTGCTG: 0.569 z-score

Single results of other studies
PhoQ, residues 284 288 289 292 302 303 SSTLLI — fold induction (PhoP, residues 12 14 15 18 19 TPWLV (Escherichia coli, UniProt P23836); Sort-seq, measured: YFP reporter; E. coli; PhoQ-PhoP variant library, together with: 10 µM Mg2+; reference: high Mg2+ state, higher = stronger signaling): 4.52

Repeated from above (block 3):
GCCTAGCACTCACTCTTCTTGCATCTGACTGTGCTAGTCTTGATTCGCTTGACGCTGCTG: 0.569 z-score
